Measured values from different studies.
Every numbered part comes from another study and shows a few of its results, in no order.

Series 1 — technique: protein-binding microarray; form: double-stranded DNA, one strand shown; matrix: in vitro; tested at: 2540 nM top; notes: 60-bp whole probe; with: salmon DNA 0.4 mg/ml; relative to: random background probes; direction: higher = stronger binding; measurement: fitted relative affinity; constant ends, left off below: GCCTAGCAC … GTCTTGATTCGCTTGACGCTGCTG
Target: Interferon regulatory factor 3, full length, phosphomimetic (IRF3, Homo sapiens, UniProt Q14653, residues 1-427, S386D/S396D/S398D/S402D/T404D/S405D)
Target sequence (chain): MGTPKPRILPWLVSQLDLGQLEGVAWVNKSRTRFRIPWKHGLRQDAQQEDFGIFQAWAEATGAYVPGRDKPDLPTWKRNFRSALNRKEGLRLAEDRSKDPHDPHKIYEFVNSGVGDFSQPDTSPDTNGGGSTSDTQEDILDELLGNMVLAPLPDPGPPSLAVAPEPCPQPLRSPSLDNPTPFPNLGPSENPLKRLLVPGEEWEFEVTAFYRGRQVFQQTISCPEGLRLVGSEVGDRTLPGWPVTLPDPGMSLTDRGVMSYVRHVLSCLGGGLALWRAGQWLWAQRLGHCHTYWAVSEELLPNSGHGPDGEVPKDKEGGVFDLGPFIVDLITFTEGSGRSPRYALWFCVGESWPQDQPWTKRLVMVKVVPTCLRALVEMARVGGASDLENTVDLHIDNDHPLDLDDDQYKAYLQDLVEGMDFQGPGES
Strand = GACGATAACGGGACTGGAGACGTGCTA; value = -0.496 z-score
Strand = TTAGATTTCGACACTGGGTTAGTGCTA; value = 0.471 z-score
Strand = TTAGGTTTCGGACGGGGTTAGTGCTAG; value = 2.09 z-score
Strand = TCCCCTCTCTTTCCAACTCTGTGCTAG; value = 2.23 z-score
Strand = AAACCTATAGGGCCTGACTTCGTGCTA; value = -0.209 z-score
Strand = TTAGATATCGGGTATCGATTAGTGCTA; value = 0.365 z-score
Strand = TTAGACCTGGGGTATCGATTAGTGCTA; value = -0.635 z-score
Strand = TTAGGTTTCCTTTCCATTTAGTGCTAG; value = 10.5 z-score

Series 2 — action: inhibitor; tested at: 20 µM; measurement: inhibition
Target: Replicase polyprotein 1ab, nsp13 helicase (rep, Severe acute respiratory syndrome coronavirus 2, UniProt P0DTD1)
Compound = NC(=O)NO; value = -1.64%
Compound = Cc1noc2c1-c1ccccc1C(c1ccc(Cl)cc1)=N[C@H]2CC(N)=O; value = -13.1%
Compound = N[C@@H](C(=O)N[C@@H]1C(=O)N2C(C(=O)O)=C(Cl)CS[C@H]12)c1ccccc1; value = 24.8%
Compound = O=C(O)Cc1sc(-c2ccccc2)nc1-c1ccc(Cl)cc1; value = 2.7%
Compound = CNC(=O)N(C)N=O; value = 1.53%
Compound = CSc1nc(NC2CCCC2)c([N+](=O)[O-])c(NC2CCCC2)n1; value = 3.33%
Compound = CCCCOc1cc(C(=O)OCCN(CC)CC)ccc1N; value = 7.6%
Compound = S=C(S)O[C@@H]1C[C@@H]2C[C@@H]1[C@H]1CCC[C@@H]21; value = 31.2%
Compound = CC(C)(C)Nc1nc(Nc2ccc(C(N)=O)cc2)cc(N)c1C#N; value = 3.03%
Compound = COc1cc2c(N3CCN(C(=O)Nc4ccc(OC(C)C)cc4)CC3)ncnc2cc1OCCCN1CCCCC1; value = 5.7%
Compound = FC(F)(F)c1ccc(N2CCNCC2)nc1Cl; value = 10.8%
Compound = CNC(=O)[C@H]1O[C@@H](n2cnc3c(NCc4cccc(I)c4)nc(Cl)nc32)[C@H](O)[C@@H]1O; value = 4.28%
Compound = COC(=O)c1cnn(-c2ccc(F)cc2F)c1/C=N/NC(=S)NC(C)(C)C; value = -2.55%
Compound = Cc1cc(O)c2c(c1)C(=O)c1cc(O)cc(O)c1C2=O; value = 19.4%
Compound = Cc1cc([N+](=O)[O-])ccc1NS(=O)(=O)c1cc(Cl)ccc1Cl; value = 7.66%
Compound = CNCc1ccc(-c2cc(-c3nc(-c4ccc(S(=O)(=O)C(C)C)cc4)cnc3N)on2)cc1; value = 15.7%
Compound = O=C(O)c1ccccc1C(=O)Nc1ccc(S(=O)(=O)Nc2nccs2)cc1; value = 4.64%
Compound = O=C(Oc1cccc2cccnc12)c1ccccc1; value = -1.47%
Compound = c1ccc2c(c1)OC[C@H](CNCCCOc1ccc3c(c1)OCO3)O2; value = 7.05%
Compound = CN1CC(=O)N=C1NC(=O)Nc1cccc(Cl)c1; value = -5.99%
Compound = CCSC(=N)N; value = 2.92%
Compound = CC[N+](CC)(CCNC(=O)C(=O)NCC[N+](CC)(CC)Cc1ccccc1Cl)Cc1ccccc1Cl; value = 8.93%
Compound = COc1cc2ncnc(Nc3cccc(Cl)c3F)c2cc1OC(=O)N1CCN(C)C[C@H]1C; value = 10.3%
Compound = C[C@@H](Oc1cc(-c2cnn(C3CCNCC3)c2)cnc1N)c1c(Cl)ccc(F)c1Cl; value = 31.1%
Compound = O=c1c(-c2ccccc2)c1-c1ccccc1; value = 5.81%

Series 3 — technique: protein binding microarray; form: double-stranded DNA, one strand shown; matrix: in vitro; tested at: not given; relative to: not given; direction: higher = stronger binding; measurement: E-score
Target: Histone acetyltransferase KAT6A, winged helix 1, GST fusion (KAT6A, Homo sapiens, UniProt Q92794, residues 1-85)
Notes: 8-mer, flanks averaged, mean of 2 arrays, mostly near background
Target sequence (chain): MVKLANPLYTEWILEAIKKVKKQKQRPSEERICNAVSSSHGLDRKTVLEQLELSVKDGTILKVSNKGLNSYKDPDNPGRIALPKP
Strand = AGTATGAA; value = -0.0559
Strand = GCTTGACA; value = -0.095
Strand = ATACATAT; value = -0.0354
Strand = CACGAATC; value = -0.0622
Strand = GATAAGAA; value = -0.035
Strand = ACCTAGAC; value = -0.0771
Strand = TCATCTAA; value = -0.164
Strand = CTTGGCCC; value = -0.103

Series 4 — cell line: HEK-293T/ACE2; tested at: concentration not given; time: 16 (unit not given); relative to: vehicle; measurement: viability
SMILES = Nc1nc(NC2CC2)c2ncn([C@H]3C=C[C@@H](CO)C3)c2n1; value = 100%
SMILES = CC1=C(C/C=C(\C)CCC[C@H](C)CCC[C@H](C)CCCC(C)C)C(=O)c2ccccc2C1=O; value = 99.4%
SMILES = CCCCC1=NC2(CCCC2)C(=O)N1Cc1ccc(-c2ccccc2-c2nnn[nH]2)cc1; value = 103%
SMILES = CCCCc1nc(Cl)c(CO)n1Cc1ccc(-c2ccccc2-c2nn[nH]n2)cc1; value = 99.7%

Series 5 — technique: RNA Bind-n-Seq; form: RNA; matrix: in vitro; tested at: 365 nM; relative to: no-protein control; direction: higher = stronger binding; measurement: RBNS enrichment (R)
Target: RNA binding protein fox-1 homolog 2, RRM domain, GST-SBP tag (RBFOX2, Homo sapiens, UniProt O43251-10, residues 100-194)
Notes: natural RNA segment, single round, ends assumed
Constant ends, left off below: GGGAGUUCUACAGUCCGACGAUC … UGGAAUUCUCGGGUGCCAA
Construct (chain): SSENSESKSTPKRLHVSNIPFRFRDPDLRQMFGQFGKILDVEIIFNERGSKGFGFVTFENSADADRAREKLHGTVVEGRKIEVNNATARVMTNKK
Strand = AUUUUGGAGUCUGUUUGGGAACUUUUAAGACUUCAAAGCAAAGUUAGCUACCAGCAAUUUCUGUAAACCAAGAGAAGAUUGUCACAAAGAUUCACUACUUUCCAACUGAA; value = 0.411
Strand = CCCGCCGGGAAGCAGCCCCGGCUCCUGAAUCACCCUCGCUCCGUCAGGCGGGACUCGUGUCCCAGAGAGGAAGGGGCUGCUGAGGUCUGAUGGGGCCCUUCCUCCGGGUG; value = 0.404
Strand = CAAAGAAAUUUUGGAGUGAGUGGCAGUCCUGCGCCAGCCUCGCGGGACACGUGUUGUACAUAAGCCUCUGCAGUGUCCUCUUGUUAAUGGUGGGGUUUUCUGCUUUGUUU; value = 0.523
Strand = GCUUUUUUUUUUUAAAGUAAGAAUAGCUUGUUAGUAUAUCAAUGUUCAUGGCUAAUGUUAUCUCAUUUUGUUAGUCGUUAUUUUGGAAUUACAUGAUGUGUGAUUUAGGG; value = 0.499
Strand = ACUUCUAACUUUGCUCCAAGCCACUCUCUUUUUAAACAGCAACAAUUUAAAGCUAUGAAGUCACCUGGAGAAAAGGAACGUUGCUCUUGGACAGCAAGCAAACCAUUUCU; value = 0.567
Strand = UUCCGAAGAUGAGGCCCAGGAUAUGGAGUUGUAGUAGAAAAAGCACCUGCUUUUCAGAAAGACUAUUAUUUCCUAACCAUGAGAAGCAGACUAUAAUAUUCAUAUUUAAA; value = 0.171
Strand = GAUUAGAGCCGCAUAAUAUCCCUCUCUUGGCUAUUGAAUAAGUGGUUCACAUACCCAACCCUGUAGAAGUUAGAAGAUGGUCGGUCAUGUCUGUAUGUUCUUGUUUGCAU; value = 3.57
Strand = GAUGUUUUAUGUUUUAUAUUUAUAAUGUUCAAAAUGCAAGCAUAACAUUUAAUAUUUGUCCACAUGGUUUUACAAAAGUAAAUCUUAAAUUACUAAGCUUUUCCCAUAUG; value = 0.731

Mixed results
Compound = Oc1cc2c(cc1O)C(c1ccccc1)CNCC2 (stereo not drawn); target = Replicase polyprotein 1ab, 3C-like proteinase (rep, Middle East respiratory syndrome-related coronavirus, UniProt K9N7C7); assay = enzyme activity; conditions = 10 µM; measurement = inhibition; value = 5%

Repeated from above (series 5):
Strand = GCUUUUUUUUUUUAAAGUAAGAAUAGCUUGUUAGUAUAUCAAUGUUCAUGGCUAAUGUUAUCUCAUUUUGUUAGUCGUUAUUUUGGAAUUACAUGAUGUGUGAUUUAGGG; value = 0.499
Strand = ACUUCUAACUUUGCUCCAAGCCACUCUCUUUUUAAACAGCAACAAUUUAAAGCUAUGAAGUCACCUGGAGAAAAGGAACGUUGCUCUUGGACAGCAAGCAAACCAUUUCU; value = 0.567
Strand = UUCCGAAGAUGAGGCCCAGGAUAUGGAGUUGUAGUAGAAAAAGCACCUGCUUUUCAGAAAGACUAUUAUUUCCUAACCAUGAGAAGCAGACUAUAAUAUUCAUAUUUAAA; value = 0.171
Strand = GAUUAGAGCCGCAUAAUAUCCCUCUCUUGGCUAUUGAAUAAGUGGUUCACAUACCCAACCCUGUAGAAGUUAGAAGAUGGUCGGUCAUGUCUGUAUGUUCUUGUUUGCAU; value = 3.57
Strand = GAUGUUUUAUGUUUUAUAUUUAUAAUGUUCAAAAUGCAAGCAUAACAUUUAAUAUUUGUCCACAUGGUUUUACAAAAGUAAAUCUUAAAUUACUAAGCUUUUCCCAUAUG; value = 0.731
